Results gathered from unrelated publications.
Each line is one published result; not all experiments were run side by side.
Method: steady-state kinetics
B1: GMPS (Escherichia coli, UniProt P04079); chain MTENIHKHRILILDFGSQYTQLVARRVRELGVYCELWAWDVTEAQIRDFNPSGIILSGGPESTTEENSPRAPQYVFEAGVPVFGVCYGMQTMAMQLGGHVEASNEREFGYAQVEVVNDSALVRGIEDALTADGKPLLDVWMSHGDKVTAIPSDFITVASTESCPFAIMANEEKRFYGVQFHPEVTHTRQGMRMLERFVRDICQCEALWTPAKIIDDAVARIREQVGDDKVILGLSGGVDSSVTAMLLHRAIGKNLTCVFVDNGLLRLNEAEQVLDMFGDHFGLNIVHVPAEDRFLSALAGENDPEAKRKIIGRVFVEVFDEEALKLEDVKWLAQGTIYPDVIESAASATGKAHVIKSHHNVGGLPKEMKMGLVEPLKELFKDEVRKIGLELGLPYDMLYRHPFPGPGLGVRVLGEVKKEYCDLLRRADAIFIEELRKADLYDKVSQAFTVFLPVRSVGVMGDGRKYDWVVSLRAVETIDFMTAHWAHLPYDFLGRVSNRIINEVNGISRVVYDISGKPPATIEWE
B2: Nudt8 (Mus musculus, UniProt Q9CR24); chain MLPDGLSAEDEQRCRQLLARTTARLRSRPAAAAVLVPLCLVRGVPALLYTLRSSRLVGRHKGEVSFPGGKCDPDDQDVIHTALRETQEELGLEVPKEHVWGVLQPVYDREKATIVPVLANVGPLDLQSLRPNLEEVDEVFEMSLAHLLQTQNQGYTHFCQGGHFSYTLPVFLHGPHRVWGLTAVITELTLKLLAPGFYQPSLAVPELPRG
B3: enzyme (Vitis vinifera, UniProt F6HSW4); chain MAVDSGLSSPLGPPACEKDAKALQFIEEMTRNPDQVQEKILAEILSQNGETEYLQRFKLAGATDRDTFKSKVPVVTYEDLQPDIQRIANGDRSPILSSHPISEFLTSSGTSAGERKLMPTIHEEWDRRQKLYSLLMPVMNLYVPGLDKGKGLYFLFVKSETKTPSGLVARPVLTGYYRSEHFKKRPYDPYNVYTSPDEAILCVDSFQSMYAQMLCGLLMHKEVLRVGAVFASGLLRAIRFLQVHWQQLAHDISTGILNPKITDPSVREGLAGILKPSQELADFIIQECSGGNWERIITRIWPNTKYLDVIVTGAMAQYIPTLDYFSGGIPLACTMYASSECYFGLNLKPMSKPSEVSYTIMPNMGYFEFLPHDPSAPPLSRDSPPRLVDLADVEVGKEYELVITTYAGLCRYRVGDILQVTGFHNSAPQFQFIRRKNVLLSIDSDKTDEAELQKAVENASLLLREFNTSVVEYTSFADTKTIPGHYVIYWELLVKDPSNSPTDTVLKQCCLAMEESLNTVYRQGRVADNSIGPLEIRVVKSGTFEELMDYAISRGASINQYKVPRCVNFTPIMELLDSRVLSTYFSPAAPHWTPERRRTD
B4: onr (Enterobacter cloacae, UniProt P71278); chain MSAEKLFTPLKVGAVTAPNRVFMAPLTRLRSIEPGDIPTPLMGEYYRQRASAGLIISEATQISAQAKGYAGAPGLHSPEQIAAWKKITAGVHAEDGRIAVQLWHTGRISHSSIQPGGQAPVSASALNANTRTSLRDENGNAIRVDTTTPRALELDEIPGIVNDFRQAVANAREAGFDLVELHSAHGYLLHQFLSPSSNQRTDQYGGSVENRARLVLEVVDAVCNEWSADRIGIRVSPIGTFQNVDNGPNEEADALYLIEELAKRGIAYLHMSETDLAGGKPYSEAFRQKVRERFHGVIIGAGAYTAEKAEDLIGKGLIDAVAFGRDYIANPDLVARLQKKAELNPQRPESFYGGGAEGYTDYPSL
B5: enzyme (Metarhizium robertsii, UniProt E9F050); chain MGSTSEKPLLLFTSFPGEGHTNPVLAIAKHLIQRGHTVAYLSTSRYREKILSIGAEFLSAEWPIPGLDPQAGTALQSMPIGVGRFAYLLIHIFYKWLVLRVDAVSDALEFLRRREPGREIIVIEDILNMSTMPYRYGRPLPAGFNTMPKTVGISPVPLMLQSQDTAPFMLGLPPDASESGRLRNKALNKLVNEGPMKPMVDVWKEVMTQCGCTVTPEGSPLNACFDAYDATFMLCSPSLEYPISDLPPHVRFAGCLPRRGIDAHTKHPAWWSEVTDTAPSTGPRTTKIVFVSQGTVSTNWNELVMPTLAALAGRDDTLVIAALGLPGAILPEGFDVPSNARVADYVAYDAILPYADVFVSNAGYGAFGHAVMNGVPAIFAGETEEKPEVAMRAEWAGFAYNLKTQTPSADQIRDAVDAVFADDRYRVRAGELRRENEEMDALGMIERQISSVPWVVNGDT
B6: cyc1 F198L (Streptomyces coelicolor, UniProt Q9K499); chain MHAFPHGTTATPTAIAVPPSLRLPVIEAAFPRQLHPYWPKLQETTRTWLLEKRLMPADKVEEYADGLCYTDLMAGYYLGAPDEVLQAIADYSAWFFVWDDRHDRDIVHGRAGAWRRLRGLLHTALDSPGDHLHHEDTLVAGFADSVRRLYAFLPATWNARFARHFHTVIEAYDREFHNRTRGIVPGVEEYLELRRLTLAHWIWTDLLEPSSGCELPDAVRKHPAYRRAALLSQEFAAWYNDLCSLPKEIAGDEVHNLGISLITHHSLTLEEAIGEVRRRVEECITEFLAVERDALRFADELADGTVRGKELSGAVRANVGNMRNWFSSVYWFHHESGRYMVDSWDDRSTPPYVNNEAAGEK
B7: enzyme (Candida albicans, UniProt A0A1D8PHX1); chain MISIIQNGISQLSSVSGLDEANLKILICTLLSFPFGIIFKRLPDHDYTLKNIYNVAVSCFYVFGICDLRFGISTLLISATGSYFITRYVRTKSMPWINFLFLMIHMAYSHFHLQFFKEYDPKSIDITGAQMILVMKLSAFGWNIHDGKQPRSTLNDFNKARAITKHPNVLPYIGYVFFYASLLTGPAFDYADYDKFIHGTLFDDVPQDKRPGKNKRRIPRSGVQAFKKFSLGFFWAFLLLQSDKFVTMEYMFSPEFVQYHGLFYRIIYMWILGFTFRLKYYTIWTIAEGACILCGIGYNGVDPETGEFKWNRVQNIDPWSFETGQNVHACLEAWNQNTNIWLKNYVYLRVAKPGKKPGFKSTIFTFTTSAFWHGTRPGYYLTFVVGALMQTVGKYYRRNFRPIFLEADGKTPKPTKIVYDFVCWVNTQLAFGFFVQPFVILGFTKSLECWATVYYWLLWVIAISFFAFSGPFAKSVSKFFKSLQPSYREQQRKSREDKYKLNNEEASIVEQAVGAKLGQDYDIPALGLPPFDVFTDFDQTEVDHDIQHLRKAWTSFRGRRGSITENDFDGLKDAYNNFTNEINDIFNTKKEEFKKEKLNKQN
UniProt Q07534, sequence (whole entry, looked up): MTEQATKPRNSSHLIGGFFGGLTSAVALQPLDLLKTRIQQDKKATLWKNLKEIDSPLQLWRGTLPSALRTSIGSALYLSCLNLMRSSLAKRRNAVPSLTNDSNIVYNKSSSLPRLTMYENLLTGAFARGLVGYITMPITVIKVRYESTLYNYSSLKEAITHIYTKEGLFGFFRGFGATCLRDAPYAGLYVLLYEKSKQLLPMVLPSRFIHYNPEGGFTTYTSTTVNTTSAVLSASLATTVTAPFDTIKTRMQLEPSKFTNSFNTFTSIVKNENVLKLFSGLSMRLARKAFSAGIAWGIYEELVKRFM
UniProt P76342, sequence (whole entry, looked up): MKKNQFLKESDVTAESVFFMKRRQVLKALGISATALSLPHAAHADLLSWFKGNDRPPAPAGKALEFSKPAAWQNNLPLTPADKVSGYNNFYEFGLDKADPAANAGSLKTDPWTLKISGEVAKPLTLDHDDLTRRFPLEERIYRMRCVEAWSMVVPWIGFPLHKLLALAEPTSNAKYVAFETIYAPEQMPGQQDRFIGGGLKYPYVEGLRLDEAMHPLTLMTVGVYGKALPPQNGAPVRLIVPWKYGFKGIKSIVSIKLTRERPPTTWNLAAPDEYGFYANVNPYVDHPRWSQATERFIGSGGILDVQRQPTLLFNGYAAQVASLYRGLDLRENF
UniProt I0JWN7, sequence (whole entry, looked up): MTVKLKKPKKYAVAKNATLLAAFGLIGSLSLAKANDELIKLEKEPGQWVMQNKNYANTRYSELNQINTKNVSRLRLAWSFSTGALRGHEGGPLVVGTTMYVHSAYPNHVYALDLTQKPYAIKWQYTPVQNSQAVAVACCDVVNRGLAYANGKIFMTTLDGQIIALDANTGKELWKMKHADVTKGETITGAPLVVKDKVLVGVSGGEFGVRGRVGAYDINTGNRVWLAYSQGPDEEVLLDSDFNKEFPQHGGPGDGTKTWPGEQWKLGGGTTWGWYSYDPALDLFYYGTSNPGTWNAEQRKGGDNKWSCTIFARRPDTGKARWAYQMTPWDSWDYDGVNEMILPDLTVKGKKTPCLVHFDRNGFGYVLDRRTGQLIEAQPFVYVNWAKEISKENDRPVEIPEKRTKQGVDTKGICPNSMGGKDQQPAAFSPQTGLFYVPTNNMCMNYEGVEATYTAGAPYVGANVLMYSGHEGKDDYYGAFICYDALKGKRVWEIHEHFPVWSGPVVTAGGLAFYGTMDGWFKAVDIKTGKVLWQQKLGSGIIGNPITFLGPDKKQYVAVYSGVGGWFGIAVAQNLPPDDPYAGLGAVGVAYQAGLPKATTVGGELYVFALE
UniProt P06757, sequence (whole entry, looked up): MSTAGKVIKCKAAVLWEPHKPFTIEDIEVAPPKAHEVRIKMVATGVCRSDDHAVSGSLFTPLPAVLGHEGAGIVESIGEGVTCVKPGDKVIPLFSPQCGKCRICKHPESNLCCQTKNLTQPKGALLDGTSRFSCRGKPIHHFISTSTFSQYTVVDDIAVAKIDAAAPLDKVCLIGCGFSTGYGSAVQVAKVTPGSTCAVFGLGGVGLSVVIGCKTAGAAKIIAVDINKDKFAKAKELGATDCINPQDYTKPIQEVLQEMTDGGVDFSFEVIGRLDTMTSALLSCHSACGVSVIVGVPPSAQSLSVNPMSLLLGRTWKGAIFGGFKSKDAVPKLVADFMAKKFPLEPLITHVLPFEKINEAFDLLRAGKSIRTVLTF
UniProt P19337, sequence (whole entry, looked up): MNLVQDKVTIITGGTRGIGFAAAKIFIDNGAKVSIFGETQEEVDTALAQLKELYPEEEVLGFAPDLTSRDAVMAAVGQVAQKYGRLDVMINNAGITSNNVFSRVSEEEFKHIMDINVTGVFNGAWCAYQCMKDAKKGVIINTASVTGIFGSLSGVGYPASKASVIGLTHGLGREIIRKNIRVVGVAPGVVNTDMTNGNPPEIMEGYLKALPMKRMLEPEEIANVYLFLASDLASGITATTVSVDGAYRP
UniProt Q6P4A8, sequence (whole entry, looked up): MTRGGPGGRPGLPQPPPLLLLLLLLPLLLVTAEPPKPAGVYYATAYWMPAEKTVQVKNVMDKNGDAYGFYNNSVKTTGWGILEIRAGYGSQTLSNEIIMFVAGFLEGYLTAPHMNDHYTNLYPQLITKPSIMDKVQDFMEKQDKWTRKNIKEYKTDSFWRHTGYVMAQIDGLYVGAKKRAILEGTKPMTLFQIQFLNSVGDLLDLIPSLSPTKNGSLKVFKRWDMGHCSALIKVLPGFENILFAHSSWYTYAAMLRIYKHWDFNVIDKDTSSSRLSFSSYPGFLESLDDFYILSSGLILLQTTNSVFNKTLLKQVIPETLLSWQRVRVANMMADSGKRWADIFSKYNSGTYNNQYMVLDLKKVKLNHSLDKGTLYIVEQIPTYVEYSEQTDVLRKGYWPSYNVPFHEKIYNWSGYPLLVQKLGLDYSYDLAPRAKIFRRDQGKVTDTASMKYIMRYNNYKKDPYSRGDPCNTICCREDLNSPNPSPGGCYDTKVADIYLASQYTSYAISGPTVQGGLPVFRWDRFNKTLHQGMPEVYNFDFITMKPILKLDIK

`methanol dehydrogenase partial-apo, europium-bound (Methylacidiphilum fumariolicum, UniProt I0JWN7)` has a Km of 0.91 µM (CO; pH 7.2, 45 °C, together with: 20 µM EuCl3).
With `B1 (GMPS)` the Km was 35.3 µM (O=c1[nH]c(=O)c2ncn([C@@H]3O[C@H](COP(=O)(O)O)[C@@H](O)[C@H]3O)c2[nH]1; apparent).
The Km of `B2 (Nudt8)` is reported as 233 µM (CC(C)(COP(=O)(O)OP(=O)(O)OC[C@H]1O[C@@H](n2cnc3c(N)ncnc32)[C@H](O)[C@@H]1OP(=O)(O)O)[C@@H](O)C(=O)NCCC(=O)NCCSC(=O)CC(=O)O; pH 8.5, together with: 2 mM Mn2+).
`B3 (enzyme)` gave a Km of 565 µM (O=C(O)COc1nc2ccccc2s1; pH 8.6, 25 °C).
The Km of `B4 (onr)` is reported as 3.1 µM (CC1=CC(=O)N(c2ccccc2)C1=O; pH 7, 25 °C, apparent, anaerobic, together with: NADPH 100 µM).
The Km of `BaiA2 (Clostridium scindens, UniProt P19337)` is reported as 18 µM (C[C@H](CCC(=O)SCCNC(=O)CCNC(=O)[C@H](O)C(C)(C)COP(=O)(O)OP(=O)(O)OC[C@H]1O[C@@H](n2cnc3c(N)ncnc32)[C@H](O)[C@@H]1OP(=O)(O)O)[C@H]1CC[C@H]2[C@@H]3CC[C@@H]4C[C@H](O)CC[C@]4(C)[C@H]3CC[C@]12C; pH 8.7, 37 °C, together with: NAD+).
With `enzyme (Saccharomyces cerevisiae, UniProt Q07534)` the Km was 11 µM (C=C(C)CCO[P@@](=O)(O)OP(=O)(O)O; pH 7.4, not purified).
For `MsrP (Escherichia coli, UniProt P76342)`, the Km was 8000 µM (C[S@+]([O-])CC[C@H](N)C(=O)O; pH 7, 30 °C, together with: benzyl viologen 0.4 mM).
`B5 (enzyme)` gave a Km of 110 µM (O=c1ccn([C@@H]2O[C@H](COP(=O)(O)OP(=O)(O)O[C@H]3OC[C@@H](O)[C@H](O)[C@H]3O)[C@@H](O)[C@H]2O)c(=O)[nH]1; pH 7.5, 30 °C).
`enzyme (Rattus norvegicus, UniProt P06757)` gave a Km of 320 µM (OC1CCCC1; pH 7.3, 37 °C).
The Km of `PLBD1 self-cleaved, cathepsin L-processed (Homo sapiens, UniProt Q6P4A8)` is reported as 13.1 µM (Cc1cc(=O)oc2cc(NC(=O)[C@@H](N)CC(C)C)ccc12; pH 4.5, 37 °C, together with: cathepsin L).
For `B6 (cyc1 F198L)`, the Km was 4.2 µM (CC(C)=CCC/C(C)=C/CC/C(C)=C/CO[P@@](=O)(O)OP(=O)(O)O; pH 6.5, 30 °C, together with: MgCl2 10 mM).
For `B7 (enzyme)`, the Km was 38.3 µM (CCCCC/C=C\C/C=C\CCCCCCCC(=O)SCCNC(=O)CCNC(=O)[C@H](O)C(C)(C)COP(=O)(O)OP(=O)(O)OC[C@H]1O[C@@H](n2cnc3c(N)ncnc32)[C@H](O)[C@@H]1OP(=O)(O)O; pH 7.4, 37 °C, apparent, not purified).

For quick reference, copied from above:
For `MsrP (Escherichia coli, UniProt P76342)`, the Km was 8000 µM (C[S@+]([O-])CC[C@H](N)C(=O)O; pH 7, 30 °C, together with: benzyl viologen 0.4 mM).
